Results collected from several papers.
Parts stem from different laboratories: compare values within a part only.

Set 1 — technique: RNA Bind-n-Seq; form: RNA; matrix: in vitro; concentration: 365 nM; relative to: no-protein control; reading: higher = stronger binding
Target: RNA binding protein fox-1 homolog 2, RRM domain, GST-SBP tag (RBFOX2, Homo sapiens, UniProt O43251-10, residues 100-194)
Setting: natural RNA segment, single round, ends assumed
Shared flanks, not repeated: GGGAGUUCUACAGUCCGACGAUC … UGGAAUUCUCGGGUGCCAA
Target sequence (chain): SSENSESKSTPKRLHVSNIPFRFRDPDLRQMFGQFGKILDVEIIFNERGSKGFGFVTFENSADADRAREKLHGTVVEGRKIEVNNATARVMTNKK
`GCCCCCAUAGAAUGUGACCCUGUCUGCAGAGUCUCAUUUACCCCUCUUUUUCUCAUUGUCAUUUGUUGGCUUUAUUAGGGCUGUCUUACAGGAUCAUGUUGGCAUUUACU` — result for “RBNS enrichment (R)”: 0.542.
`GCCACAGACAGACAGAUGAUGAGGAAGAGACACAUGAAGAAUAGCCUCCCUCCCACCAUCCCAGAAAGGCUCAGGGCAGCCGUGAUCCUCCUAGGGUCACAGUCGGUCAG`: “RBNS enrichment (R)” 0.202.
Under “RBNS enrichment (R)”, `UUUACAUGUGACCUUCUUAUAGGUUAACUGAGUUUGUGGCCUGGGACACAUGUAAUGAAGGUCACAGUCCACAGGUGACAGAGAAAUCCAAACUGUUGAUUACAGGUGCA` is recorded as 4.12.
For `GUAACGAUGACCUCCUGUCUCUAUUUGAGAACAACUGGGGCCACCCGGUCGGGGCCAUCCCUCCACACUCUGCAUCCUACCCCACCUACCCAACACACUUUUCCACCUGG`, “RBNS enrichment (R)” read 1.13.
Under “RBNS enrichment (R)”, `UACUUUCAGGUCUGGAGUCUUCAGAUCUCUUCCUUGAGGCGGCCAGGGAGAGGAAGUCUCGCUCUCUCUCCUCACAGCCCUUGGCCCCAGCAUUUAUUCUUGGGUCCUUU` is recorded as 0.417.
Under “RBNS enrichment (R)”, `UCAAAGUACUAAAAAAUGUACUAGAUCAUUAAGACUUAUGUGCUCUUACUGAUUGAAAGAUUUUUUAUGUUUUCCUUGUAAUAAAGGACCUAAACCGAAGGUACCUGAGA` is recorded as 0.636.
`AGGGAGGGAGACUCCUUGUCCCAGACCUCAGUCCUGCUUCCAACUGCCUUCCUUGCCCUCACUGUUCUGGGGUGGGGGACAUCCCCGGGGAUCCCUGAGAAGAGUGUCCU` — result for “RBNS enrichment (R)”: 0.593.
`CUCUCCCCUGCCCCUCUUCCCUGACCCCAGCUGGCUAGCACUGCAGAGUUUGGCUGCUGGCAGUGUGGCUGGAGGGGAGGGGAGACCACAUCUAAGGUGGGGGCCAUGGC`: “RBNS enrichment (R)” 0.237.
Under “RBNS enrichment (R)”, `CCCGCCUGCUCCCUUCCUGACCUCCCCUGACCCCGAAGAUCACUACCUCUGUCAUUCAGGCAUUGGGGUACAUCCUGAUAAGUCGUGUCAGAACUGCCAAUUUCAGGACU` is recorded as 0.493.
`GUUAUUUAAUUUACUGACUGAAAUCCAAUUUGGAAUUUGGUAGCAGUUAAUUCAAGCCAAUUUUUUUUGUUUCUUCAUUUCCCCUCCCCCAAUCCAUGAAAGCCUAAAUG` — result for “RBNS enrichment (R)”: 0.939.
Under “RBNS enrichment (R)”, `ACAUUAAGAAAAUUUGUAUGAAAUAAUUUAGUCAUCAUGAAAUAUUUAGUUGUCAUAUAAAAACCCACUGUUUGAGAAUGAUGCUACUCUGAUCUAAUGAAUGUGAACAU` is recorded as 0.811.
`UUUUUAAUGCAGGACACUUUGAGUGUUACAAAAUCUGUAGACCUGGCAGUAGGGUCAUGAUGUUGGGAAGGGUGUAGUGCCCUAGGUUGGUGACAGAAGGGACAGACACU` — result for “RBNS enrichment (R)”: 0.732.

Set 2 — technique: RNA Bind-n-Seq; form: RNA; matrix: in vitro; concentration: not given; relative to: input RNA pool; reading: higher = stronger binding
Target: RING finger protein unkempt homolog, zinc fingers 1-6, GST-SBP tag (UNK, Homo sapiens, UniProt Q9C0B0, residues 30-357)
Sequence of UniProt Q9C0B0 (30-357, looked up): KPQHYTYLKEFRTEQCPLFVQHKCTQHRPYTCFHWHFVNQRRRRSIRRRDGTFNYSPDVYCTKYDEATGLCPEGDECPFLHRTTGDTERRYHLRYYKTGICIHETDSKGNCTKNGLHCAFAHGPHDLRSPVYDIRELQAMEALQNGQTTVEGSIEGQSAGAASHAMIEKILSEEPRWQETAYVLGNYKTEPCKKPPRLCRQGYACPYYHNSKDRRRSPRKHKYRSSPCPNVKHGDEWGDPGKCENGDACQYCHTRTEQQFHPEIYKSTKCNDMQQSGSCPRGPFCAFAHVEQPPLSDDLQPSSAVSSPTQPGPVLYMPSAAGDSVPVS
Setting: RNA with constant flanks, human and mouse sites, ends assumed
Shared flanks, not repeated: GGGAGUUCUACAGUCCGACGAUC … CAACAGAGGAUUGAGCAUCA
`CAAUUACUGGAAAAUAAAAGGAGUUCAUGUAGUUUUUGUCCAGGCUUGAGUCACCAUGAGUAGUAGUUUAGGAAAAGAAAAAGACUCUAAAGAAAAAGAUCCCAAAGUACCAUCAGCCAA` has a bound/input enrichment of 2.09 ratio.
`ACGAAGAUGAUAAAGACUGCAAAGAAGAGGAGAACAAAAGCAGCUCUGAGGGCGGAGACGCUGGCAAUGACACGAGAAACACGACUGCAGACUUGCAGAAAGCCGGUGAAGGGACCUAAC` has a bound/input enrichment of 0.216 ratio.
The bound/input enrichment of `GGUGAGCUUCAUUUUCUCCAAAUUGGAGGAACCUGUGAUGAUAUUGAUGAAGCUGAUAUACUAGUGGAUGGAUCUCUUUCUAAAGGAAUAGAACCAUCUUCAGAAGGUUCCAAACCUUUA` is reported as 0.0695 ratio.
For `UCUUUUCCUCUGUAUUUACAUAUACUUUAUGUAUCAAGUGUGUGUGUGUAUGUGUGUGCUUUUAGCUCCAAGCAAACCUGAGUUUGGAUAAAGGGGAACUAAACUACAAAUUAUGUCUAU`, the bound/input enrichment was 0.182 ratio.
`CCUGCUGUAUUGUCUGCUCUUGACCAAAGCCAGUCACAGCCUUCAAAAGCAGCAGAAACCCCUGCAGUGGCUUCAUGUUGGAGUGGGCCACAAGUUUCUCCAGAGCAUAAAGAACUAUCU` has a bound/input enrichment of 0.168 ratio.
`GGAGCCAAGAAUCUAAAAGAGAUGGAGACUCUUCAAGAAGUAGGAUUAAGGUACCUGCCUCAUGAAGAGCUUUUCUGCUCCCAGAUCUGGCAACAGAUUACAAGAGAGUUAAUCAAGUAU` gave a bound/input enrichment of 0.134 ratio.
`UAUAAGAUUAAGGUUUGGAAUUACAAACUUCGGCGCUGCCUGUUCACAUUGCUCGGGCACUUGGAUUAUAUCCGUACAACGUUUUUCCAUCAUGAAUAUCCUUGGAUUCUGAGCGCCUCA` gave a bound/input enrichment of 0.15 ratio.
`UCAUUGGGUUACUCCUAUUAUCAAGUAGCUGGAAUUGUGAAGGUUGAGUAGUUAGAUCUUUAGCUUUUAUUCAUUAUUUUUUGUAUUACUCUCCAUGUGUAUAAAUUAUUGAUCAUGUUG` has a bound/input enrichment of 24.7 ratio.
`CGAAUCCACUGCAGUAAAUCUUCAGUCCGCAGCAGGAGAAGCAGUCCUAAAAGGAAGCGCAAUAGACACUGUUCAAGUCAUCAGUCACGUUCGAAGAGCCACCGAAGGAAAAGAUCCAGG` has a bound/input enrichment of 0.177 ratio.
For `GGAGUCUUCAAUAAUAAACACAGUGGCCUGUGGCACAGUGGACUGAUCGACAAAAACCUCAUUGAUUACUUUAUCCCCUUCCUGCCUUUGGAGUACAGACAUGUGAAAAUGUGUGUGAGG`, the bound/input enrichment was 0.11 ratio.
`UCAGGUCUUAUAAUUUCAGAUGUUGUUUUUUAAGGGAAAUUGACCAUUUCACUAGAGGAGUUGUGCUGGUUUUUAAAUGUGCAUCAAGAAAGACUACUGAAAAGUAUUAUUUUGUAACUA` has a bound/input enrichment of 0.247 ratio.

Set 3 — technique: EMSA with sequencing; form: double-stranded DNA, one strand shown; matrix: in vitro; concentration: 10 and 20 nM; relative to: negative control set to 0; reading: higher = stronger binding
Target: Hepatocyte nuclear factor 3-alpha (Foxa1, Mus musculus, UniProt P35582, residues 1-468, full length assumed)
Setting: whole designed probe, mean of two concentrations, ends assumed
Shared flanks, not repeated: GTGAGCGGTGCCCATTGATGGGGAAC … TTTCACTGGGATCGTGGGGAC
Target sequence (chain): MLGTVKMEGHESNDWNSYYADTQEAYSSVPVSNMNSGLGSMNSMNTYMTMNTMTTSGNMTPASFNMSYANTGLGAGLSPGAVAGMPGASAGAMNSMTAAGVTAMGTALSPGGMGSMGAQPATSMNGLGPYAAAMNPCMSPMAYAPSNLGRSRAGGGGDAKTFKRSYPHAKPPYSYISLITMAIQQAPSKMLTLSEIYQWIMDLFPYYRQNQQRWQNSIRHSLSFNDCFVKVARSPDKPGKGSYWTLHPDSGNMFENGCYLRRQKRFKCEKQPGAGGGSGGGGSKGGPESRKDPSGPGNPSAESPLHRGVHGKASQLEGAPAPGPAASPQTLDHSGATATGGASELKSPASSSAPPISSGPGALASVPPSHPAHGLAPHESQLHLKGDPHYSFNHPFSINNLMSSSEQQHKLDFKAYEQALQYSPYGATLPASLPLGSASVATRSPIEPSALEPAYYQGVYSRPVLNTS
`GCGTAGCGGCCGTAGCACCAGTTCCCGCCTCCCCCGCGGCCCGGCGCTGCGGGCGGGACCTGCGGCGACCTGTGGGCGGAAGTCTGTGGCTTTATTTACACAGAGGGCAGCCCGTGGAGGCTAGCCTTGTAAGGACGAATCGCTGGCGGGCCTGTGGGGGAGGCCAGGAAAGGCGGCCTTCGCCTGATAGGAA` — result for “normalised bound fraction”: 0.462 ratio.
Under “normalised bound fraction”, `GAGTGAGATTTTAATCTTTGACACTCTACAGCAAGTTGAAGGGGTAGTATATGAGTGAGGCTGACATGAGAAGTTTCTCATGATAAGTTTCTCATGTTTACTTAGTTTCCCAGCTATAAAAACCAAAGAAAAGAAGGCCATATTAAGTATTAGTATAGATTTCCATAAATATAATAAGGATCTATTATTATTA` is recorded as 0.411 ratio.
Under “normalised bound fraction”, `TTTGCTCCCCACACCCATTGCCTGCCACAAAAGGGTATTTTGCCAACTTCAGTATGTAAACATTTAGGGATATAGATGACGTGATCACATGTCTGTTTACATAGTTAATAATTTACGCATACACATTTAAACTTACTCATATAAAGTCATACACAATTTAGAATCATTACTTTTTGCTATTCTTACATTTCAG` is recorded as 0.509 ratio.
`AGGCACAAGGTATGAATCACTAAGAATCTAGCAGCAGCTCTAGAAGCCTCCAAAGATAGGGGGTGGAGTATTGCACTTCCCCAACAGGGGGACGTAAATATGAAAGAACAGTGGATGGCCTAAATCAGTATGTGTCACTCTTTGTAAAGAGCCACAAGTGTTTGACTAGGGAAAAAGGAAAAGAGGCGAGAGT` — result for “normalised bound fraction”: 0.017 ratio.
`ATATACCTTTATTGCATATTAACAATTTCATAATGTGTCAAATTTATCCCAAACTTCTAGCTAAAATCTTTAAGAGTGCTGTTAAAGATAATGTAAACAAGCACTATTTTCTTTACTTAGCGAACAAGATTGGCCGAGTAATGTCAATTATTTTGCAACATGTTCCATTAATCAGTATACATTAAGTATCACT`: “normalised bound fraction” 0.308 ratio.
For `ACCCGCGTGCAAGGGGACCGAGCCCCGGGAAGGGGAAGAACTTGTAATCGCTTGCAGCGGGACAATGTCGACTTTTGAACCTCTAACCACTAAGCAAACAACCCATGTGCTCTTGCTCCACTGTCCAAACAGGGTTTATTGACAGGCGTTTCACGGCAACGCATAGCAACCCCGGCGGCTAGGGGGCGGGCCT`, “normalised bound fraction” read 0.434 ratio.

Set 4 — technique: protein binding microarray; form: double-stranded DNA, one strand shown; matrix: in vitro; concentration: not given; relative to: not given; reading: higher = stronger binding
Target: Histone acetyltransferase KAT6A, both winged helices, GST fusion (KAT6A, Homo sapiens, UniProt Q92794, residues 1-181)
Setting: 8-mer, flanks averaged, mean of 2 arrays, mostly near background
Residues (chain): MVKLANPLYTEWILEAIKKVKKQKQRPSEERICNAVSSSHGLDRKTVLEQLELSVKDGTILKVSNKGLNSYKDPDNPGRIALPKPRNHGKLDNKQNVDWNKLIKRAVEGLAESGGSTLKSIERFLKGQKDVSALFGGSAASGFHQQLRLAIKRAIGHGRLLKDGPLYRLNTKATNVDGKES
For `TCGCTTCA`, the E-score was -0.00404.
With `GCGTAGCC` the E-score was 0.123.
`CTGGGACC` gave an E-score of -0.122.
With `CGAAGCAC` the E-score was -0.182.
With `ATTTCCTC` the E-score was -0.0971.
`CCTTTAAA` has an E-score of -0.0927.
With `ATGACGAC` the E-score was -0.0629.
For `AACCTGGG`, the E-score was -0.0878.
The E-score of `AGTACCTG` is reported as -0.223.
For `CTTCTTGA`, the E-score was -0.0968.
With `ACGTGCTG` the E-score was -0.116.
For `CTAACCTA`, the E-score was -0.135.
`ACTTTACA` has an E-score of 0.081.
`CGTATGAA` has an E-score of 0.114.
`AGACGCGA` has an E-score of 0.141.
`TATGCTCA` gave an E-score of 0.0216.
`AGGCGCTC` has an E-score of 0.174.
For `GAACGACA`, the E-score was -0.12.
`AGAGGGCA` has an E-score of -0.186.
With `CATTTTGA` the E-score was -0.0263.
For `AACAAGTT`, the E-score was -0.144.
`CGTGCGGC` gave an E-score of 0.204.
The E-score of `CCCCTAAA` is reported as -0.149.
For `CTAATACA`, the E-score was -0.0642.
The E-score of `GACCTCGC` is reported as 0.144.

A few entries again (set 4):
For `TCGCTTCA`, the E-score was -0.00404.
With `GCGTAGCC` the E-score was 0.123.
`CTGGGACC` gave an E-score of -0.122.
